{"data": "Published values from different studies", "note": "Compare with care: the assays were run in different laboratories. ± marks the error that the study gave.", "chain of UniProt O66465 (whole entry, unmodified, looked up)": "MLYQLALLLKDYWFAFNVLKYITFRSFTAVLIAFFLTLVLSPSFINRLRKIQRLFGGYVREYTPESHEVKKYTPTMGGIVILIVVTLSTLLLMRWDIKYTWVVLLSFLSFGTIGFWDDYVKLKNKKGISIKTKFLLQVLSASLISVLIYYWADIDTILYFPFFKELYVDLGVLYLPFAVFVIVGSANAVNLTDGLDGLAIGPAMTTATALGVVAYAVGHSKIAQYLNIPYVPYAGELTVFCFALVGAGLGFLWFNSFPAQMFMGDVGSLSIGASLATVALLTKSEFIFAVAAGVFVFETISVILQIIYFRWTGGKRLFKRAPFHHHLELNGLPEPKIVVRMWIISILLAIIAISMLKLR", "chain of UniProt B9K712 (whole entry, unmodified, looked up)": "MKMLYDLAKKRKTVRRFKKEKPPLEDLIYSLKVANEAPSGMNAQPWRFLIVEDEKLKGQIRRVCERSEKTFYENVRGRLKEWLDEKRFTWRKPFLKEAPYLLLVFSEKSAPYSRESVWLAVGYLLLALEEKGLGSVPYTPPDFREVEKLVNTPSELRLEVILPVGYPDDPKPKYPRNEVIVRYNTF", "chain of UniProt P11229 (whole entry, looked up)": "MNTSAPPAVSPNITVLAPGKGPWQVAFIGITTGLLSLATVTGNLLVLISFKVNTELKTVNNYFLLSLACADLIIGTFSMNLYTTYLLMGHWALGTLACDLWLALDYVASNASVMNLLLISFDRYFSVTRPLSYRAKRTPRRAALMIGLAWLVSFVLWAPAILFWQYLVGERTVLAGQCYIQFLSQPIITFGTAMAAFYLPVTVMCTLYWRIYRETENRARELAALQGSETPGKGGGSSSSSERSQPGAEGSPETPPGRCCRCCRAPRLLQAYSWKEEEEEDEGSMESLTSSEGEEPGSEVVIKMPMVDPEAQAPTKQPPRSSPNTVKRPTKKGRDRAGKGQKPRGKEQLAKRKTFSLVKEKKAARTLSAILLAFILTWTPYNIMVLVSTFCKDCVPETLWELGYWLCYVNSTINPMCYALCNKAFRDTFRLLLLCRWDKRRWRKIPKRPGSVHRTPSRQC", "chain of UniProt P31266 (whole entry, unmodified, looked up)": "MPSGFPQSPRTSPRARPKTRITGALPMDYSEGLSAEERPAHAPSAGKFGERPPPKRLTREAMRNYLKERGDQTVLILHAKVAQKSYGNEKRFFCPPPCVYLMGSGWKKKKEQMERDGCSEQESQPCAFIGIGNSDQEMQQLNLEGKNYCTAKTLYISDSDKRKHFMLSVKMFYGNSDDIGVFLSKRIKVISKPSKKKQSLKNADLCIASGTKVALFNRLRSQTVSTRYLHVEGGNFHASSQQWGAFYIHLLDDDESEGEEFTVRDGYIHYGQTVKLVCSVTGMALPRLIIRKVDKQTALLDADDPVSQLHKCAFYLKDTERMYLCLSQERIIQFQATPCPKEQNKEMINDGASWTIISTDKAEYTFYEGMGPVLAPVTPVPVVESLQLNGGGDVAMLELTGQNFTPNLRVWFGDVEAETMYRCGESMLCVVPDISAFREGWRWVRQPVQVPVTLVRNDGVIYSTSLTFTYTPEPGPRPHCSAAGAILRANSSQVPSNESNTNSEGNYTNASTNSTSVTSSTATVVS", "chain of UniProt P34969 (whole entry, looked up)": "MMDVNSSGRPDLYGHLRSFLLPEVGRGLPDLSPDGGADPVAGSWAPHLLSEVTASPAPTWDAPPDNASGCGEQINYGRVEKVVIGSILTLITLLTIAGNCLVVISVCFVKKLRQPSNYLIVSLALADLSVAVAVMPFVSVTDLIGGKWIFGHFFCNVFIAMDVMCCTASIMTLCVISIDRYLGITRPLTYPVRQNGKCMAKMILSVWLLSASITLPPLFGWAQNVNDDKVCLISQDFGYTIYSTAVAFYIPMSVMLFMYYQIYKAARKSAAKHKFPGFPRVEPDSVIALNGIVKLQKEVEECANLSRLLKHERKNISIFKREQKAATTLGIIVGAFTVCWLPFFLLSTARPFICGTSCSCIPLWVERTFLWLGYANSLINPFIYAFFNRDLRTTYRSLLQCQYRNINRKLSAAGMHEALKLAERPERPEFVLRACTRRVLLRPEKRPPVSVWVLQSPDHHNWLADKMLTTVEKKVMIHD"}
{"SMILES": "O=c1[nH]c2ccccc2n1CCCCCN1CCN(c2ccc(F)cc2)CC1", "tested on": "5-hydroxytryptamine receptor 7 (HTR7, Homo sapiens, UniProt P34969)", "assay": "ERK1/2 phosphorylation, agonist, Western blot", "test system": "HEK293 expressing human 5-HT7R", "setting": "10 µM, 2 to 60 min", "how to read": "relative to: control", "measurement": "Emax", "value": "309 ± 34%"}
{"SMILES": "CSCC[C@H](NC(=O)[C@H](Cc1c[nH]c2ccccc12)NC(=O)[C@@H](NC(=O)[C@@H](NC(=O)[C@@H](NC(=O)[C@H](C)NC(=O)[C@@H](NC(=O)[C@H](C)NC(=O)[C@H](CCCCN)NC(=O)[C@H](CCCCN)NC(=O)[C@@H](NC(=O)[C@H](CC(N)=O)NC(=O)[C@H](CCC(=O)O)NC(=O)[C@@H](N)CCSC)C(C)C)[C@@H](C)O)[C@@H](C)O)[C@@H](C)O)[C@@H](C)O)C(=O)N[C@H](C(=O)N1CCC[C@H]1C(=O)N[C@H](C(=O)N[C@@H](C)C(=O)N[C@@H](C)C(=O)O)[C@@H](C)O)C(C)C", "tested on": "Recombining binding protein suppressor of hairless (Rbpj, Mus musculus, UniProt P31266)", "assay": "isothermal titration calorimetry", "setting": "pH 6.5, 25 °C", "measurement": "ΔH°", "value": "-14.2 ± 0.3 kcal/mol"}
{"SMILES": "CC[C@H](C)[C@@H]1NC(=O)[C@H](Cc2cn(CCc3c(C)[nH]c4cc(Cl)cc(Cl)c34)nn2)NC(=O)[C@@H](CC(N)=O)NC(=O)[C@H](CCCNC(=N)N)NC(=O)[C@H](Cc2ccccc2)NC(=O)[C@@H](CC(C)C)NC(=O)[C@H](C)NC(=O)c2cc3cc(c2)C(=O)NC[C@@H](C(=O)N[C@@H](CCCCN)C(N)=O)NC(=O)[C@H](CCCNC(=N)N)NC(=O)[C@H](CCCNC(=N)N)NC(=O)[C@H](CCCNC(=N)N)NC(=O)[C@H](CCCNC(=N)N)NC(=O)[C@H](Cc2ccc4ccccc4c2)NC(=O)[C@H](Cc2ccccc2)NC(=O)[C@H](CCCCNC3=O)NC(=O)[C@H](CC(=O)O)NC1=O", "tested on": "NF-kappa-B essential modulator (IKBKG, Homo sapiens, UniProt Q9Y6K9)", "assay": "fluorescence anisotropy", "setting": "concentration not given, added: FITC-labelled peptide 100 nM", "measurement": "binding", "value": "no binding"}
{"SMILES": "CC(=O)OCOC(=O)CN(CC(=O)OCOC(C)=O)Cc1c(OC(C)=O)ccc2c1Oc1c(ccc(OC(C)=O)c1CN(CC(=O)OCOC(C)=O)CC(=O)OCOC(C)=O)C21OC(=O)c2ccccc21", "tested on": "MDA-MB-468", "setting": "added: rucaparib", "measurement": "combination index", "value": "< 1"}
{"SMILES": "CCCCOc1ccc(C(=O)OCC[N+]2(C)CC=CCC2)cc1 (centres unmarked)", "tested on": "Muscarinic acetylcholine receptor M1 (CHRM1, Homo sapiens, UniProt P11229)", "assay": "antagonist, item: inositol phosphates", "test system": "CHO", "setting": "M1, added: carbachol", "measurement": "cooperativity factor", "value": "0.001 ± 0.0002"}
{"SMILES": "N[C@@H](Cc1ccc(O)c(I)c1)C(=O)O", "tested on": "Iodotyrosine deiodinase (IYD, Thermotoga neapolitana, UniProt B9K712, M41A/Y112A)", "assay": "binding, FMN fluorescence quenching", "setting": "25 °C", "how to read": "relative to: wild type", "measurement": "affinity increase, M41A/Y112A vs wild type", "value": "50%"}
{"SMILES": "CC(C)CC(NC(=O)C(NC(=O)NC(C(=O)O)C(C)C)C1CCNC(=N)N1)C(=O)NCCCNC(C(=O)O)C(OC1OC(CN)C(O)C1O)C1OC(n2ccc(=O)[nH]c2=O)C(O)C1O (centres unmarked)", "tested on": "Phospho-N-acetylmuramoyl-pentapeptide-transferase (mraY, Aquifex aeolicus, UniProt O66465, K70A)", "assay": "ITC", "setting": "K70A mutant", "measurement": "ΔS", "value": "9.8 ± 0.7 cal/mol/K"}
{"SMILES": "CS(C)=O.CS(C)=O.[Cl][Cu][Cl].c1ccc(-c2nnc(-c3ccc4c(c3)OCO4)[nH]2)nc1", "tested on": "T24", "assay": "FITC-IETD-FMK flow cytometry", "setting": "5.3 µM, 24 h", "measurement": "activated caspase-8 cells", "value": "33.4%"}
